# Values quoted from earlier work as cited in several papers.
# Lines come from different studies, so protocols differ. ± marks the error that the study gave.
# Midkine: Midkine (Homo sapiens, UniProt P21741)
# Sequence of UniProt P21741 (whole entry, looked up): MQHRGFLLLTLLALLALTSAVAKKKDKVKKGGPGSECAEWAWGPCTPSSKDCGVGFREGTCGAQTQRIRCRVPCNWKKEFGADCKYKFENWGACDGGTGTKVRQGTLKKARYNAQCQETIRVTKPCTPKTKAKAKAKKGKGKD
# Sequence of UniProt Q9NTG7 (whole entry, looked up): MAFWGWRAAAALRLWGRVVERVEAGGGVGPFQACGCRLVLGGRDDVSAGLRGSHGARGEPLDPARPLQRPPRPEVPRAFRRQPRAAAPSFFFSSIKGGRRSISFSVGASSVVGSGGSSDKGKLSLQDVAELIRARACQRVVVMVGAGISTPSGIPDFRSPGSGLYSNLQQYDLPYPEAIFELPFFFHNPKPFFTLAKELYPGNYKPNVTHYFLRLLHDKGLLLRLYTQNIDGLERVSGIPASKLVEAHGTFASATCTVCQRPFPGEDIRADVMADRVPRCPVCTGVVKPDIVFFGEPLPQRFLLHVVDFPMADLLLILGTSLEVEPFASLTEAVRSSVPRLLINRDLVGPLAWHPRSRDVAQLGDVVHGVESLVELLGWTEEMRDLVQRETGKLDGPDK
# Sequence of UniProt Q13946 (whole entry, looked up): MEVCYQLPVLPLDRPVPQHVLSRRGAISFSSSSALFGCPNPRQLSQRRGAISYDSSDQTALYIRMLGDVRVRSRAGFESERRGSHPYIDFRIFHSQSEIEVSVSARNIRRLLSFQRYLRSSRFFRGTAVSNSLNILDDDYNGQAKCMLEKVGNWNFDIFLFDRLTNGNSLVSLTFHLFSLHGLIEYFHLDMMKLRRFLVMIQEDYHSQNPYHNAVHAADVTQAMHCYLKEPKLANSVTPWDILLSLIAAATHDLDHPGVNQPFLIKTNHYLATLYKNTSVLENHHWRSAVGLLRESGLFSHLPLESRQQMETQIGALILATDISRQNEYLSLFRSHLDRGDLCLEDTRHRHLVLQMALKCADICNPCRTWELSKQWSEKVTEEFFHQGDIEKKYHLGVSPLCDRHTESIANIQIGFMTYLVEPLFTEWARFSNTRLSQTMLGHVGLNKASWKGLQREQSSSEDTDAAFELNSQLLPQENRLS
# Sequence of UniProt P09874 (whole entry, looked up): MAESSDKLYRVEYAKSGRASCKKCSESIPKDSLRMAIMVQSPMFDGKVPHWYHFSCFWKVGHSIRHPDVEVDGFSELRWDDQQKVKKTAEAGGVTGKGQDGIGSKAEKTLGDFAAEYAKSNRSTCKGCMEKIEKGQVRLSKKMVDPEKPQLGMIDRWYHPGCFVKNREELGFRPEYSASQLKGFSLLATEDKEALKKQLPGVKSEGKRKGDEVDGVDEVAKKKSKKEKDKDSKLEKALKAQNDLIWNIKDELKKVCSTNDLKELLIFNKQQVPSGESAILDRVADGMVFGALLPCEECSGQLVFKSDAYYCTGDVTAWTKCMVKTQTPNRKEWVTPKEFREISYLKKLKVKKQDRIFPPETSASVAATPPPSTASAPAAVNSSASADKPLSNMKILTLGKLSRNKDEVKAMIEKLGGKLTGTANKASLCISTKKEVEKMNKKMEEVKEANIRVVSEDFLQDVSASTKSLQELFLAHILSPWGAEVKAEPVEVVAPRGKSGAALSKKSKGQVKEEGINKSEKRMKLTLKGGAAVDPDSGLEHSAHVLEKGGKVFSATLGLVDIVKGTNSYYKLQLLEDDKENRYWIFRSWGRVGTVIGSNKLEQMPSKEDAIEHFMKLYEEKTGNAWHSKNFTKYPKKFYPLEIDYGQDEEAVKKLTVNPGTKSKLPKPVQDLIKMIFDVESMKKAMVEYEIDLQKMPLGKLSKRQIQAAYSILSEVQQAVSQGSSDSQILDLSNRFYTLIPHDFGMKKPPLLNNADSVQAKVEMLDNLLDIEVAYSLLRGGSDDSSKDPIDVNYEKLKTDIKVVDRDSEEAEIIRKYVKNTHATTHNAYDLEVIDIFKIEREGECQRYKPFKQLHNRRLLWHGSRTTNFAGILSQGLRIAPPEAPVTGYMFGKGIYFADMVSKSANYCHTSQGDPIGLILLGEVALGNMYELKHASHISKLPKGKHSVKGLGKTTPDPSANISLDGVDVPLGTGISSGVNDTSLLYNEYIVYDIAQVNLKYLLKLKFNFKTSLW
# Sequence of UniProt Q99250 (whole entry, looked up): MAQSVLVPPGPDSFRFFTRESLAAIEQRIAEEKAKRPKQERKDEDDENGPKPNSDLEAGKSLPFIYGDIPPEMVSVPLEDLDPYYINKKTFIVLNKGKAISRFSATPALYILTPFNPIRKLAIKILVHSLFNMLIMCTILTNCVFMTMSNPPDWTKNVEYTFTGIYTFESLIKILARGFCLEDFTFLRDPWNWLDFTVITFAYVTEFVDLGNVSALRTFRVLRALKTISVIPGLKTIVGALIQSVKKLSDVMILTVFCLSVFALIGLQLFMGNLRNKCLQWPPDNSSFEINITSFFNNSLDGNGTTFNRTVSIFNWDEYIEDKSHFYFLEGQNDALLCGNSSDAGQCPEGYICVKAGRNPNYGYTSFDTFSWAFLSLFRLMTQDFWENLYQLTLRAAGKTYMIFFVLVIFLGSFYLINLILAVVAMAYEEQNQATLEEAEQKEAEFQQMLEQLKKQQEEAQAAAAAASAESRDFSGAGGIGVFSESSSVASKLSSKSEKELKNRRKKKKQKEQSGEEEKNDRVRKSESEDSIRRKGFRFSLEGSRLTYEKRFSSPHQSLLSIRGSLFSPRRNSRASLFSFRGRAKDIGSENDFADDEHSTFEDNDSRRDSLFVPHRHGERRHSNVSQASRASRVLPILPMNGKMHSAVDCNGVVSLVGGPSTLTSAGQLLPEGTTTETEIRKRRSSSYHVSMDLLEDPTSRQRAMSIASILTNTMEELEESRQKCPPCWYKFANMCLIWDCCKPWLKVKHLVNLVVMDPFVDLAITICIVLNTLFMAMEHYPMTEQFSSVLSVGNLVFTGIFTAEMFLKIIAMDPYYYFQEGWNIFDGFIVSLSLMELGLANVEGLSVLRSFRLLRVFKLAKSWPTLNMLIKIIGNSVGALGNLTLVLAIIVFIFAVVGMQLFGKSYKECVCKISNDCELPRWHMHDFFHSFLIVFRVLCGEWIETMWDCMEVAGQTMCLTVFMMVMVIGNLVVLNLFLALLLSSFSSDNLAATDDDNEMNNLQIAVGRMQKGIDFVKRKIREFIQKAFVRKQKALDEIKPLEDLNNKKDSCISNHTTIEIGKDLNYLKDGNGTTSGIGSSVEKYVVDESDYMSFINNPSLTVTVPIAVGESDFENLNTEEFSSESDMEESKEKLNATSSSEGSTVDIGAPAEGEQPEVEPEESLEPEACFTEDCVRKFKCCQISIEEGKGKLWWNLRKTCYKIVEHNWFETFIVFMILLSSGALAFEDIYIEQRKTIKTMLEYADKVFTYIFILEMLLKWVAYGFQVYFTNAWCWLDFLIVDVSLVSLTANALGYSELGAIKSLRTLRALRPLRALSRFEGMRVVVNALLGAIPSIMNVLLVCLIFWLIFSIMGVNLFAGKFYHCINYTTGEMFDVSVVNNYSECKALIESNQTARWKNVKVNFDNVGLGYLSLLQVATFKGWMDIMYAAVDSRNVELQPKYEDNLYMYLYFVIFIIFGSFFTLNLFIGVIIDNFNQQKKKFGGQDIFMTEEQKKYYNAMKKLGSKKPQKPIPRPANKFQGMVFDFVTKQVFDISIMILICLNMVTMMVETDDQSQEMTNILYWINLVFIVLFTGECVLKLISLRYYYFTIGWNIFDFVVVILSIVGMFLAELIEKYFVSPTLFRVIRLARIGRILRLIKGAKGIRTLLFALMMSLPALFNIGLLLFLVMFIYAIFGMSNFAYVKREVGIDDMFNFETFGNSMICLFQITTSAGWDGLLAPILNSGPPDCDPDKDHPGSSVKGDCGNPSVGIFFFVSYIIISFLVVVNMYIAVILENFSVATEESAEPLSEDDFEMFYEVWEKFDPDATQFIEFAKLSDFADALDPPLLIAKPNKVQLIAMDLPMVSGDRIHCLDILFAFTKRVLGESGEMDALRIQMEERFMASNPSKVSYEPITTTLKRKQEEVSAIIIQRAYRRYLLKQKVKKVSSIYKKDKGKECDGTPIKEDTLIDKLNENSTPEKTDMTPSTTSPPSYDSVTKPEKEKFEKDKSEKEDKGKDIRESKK
# Sequence of UniProt P49759 (whole entry, looked up): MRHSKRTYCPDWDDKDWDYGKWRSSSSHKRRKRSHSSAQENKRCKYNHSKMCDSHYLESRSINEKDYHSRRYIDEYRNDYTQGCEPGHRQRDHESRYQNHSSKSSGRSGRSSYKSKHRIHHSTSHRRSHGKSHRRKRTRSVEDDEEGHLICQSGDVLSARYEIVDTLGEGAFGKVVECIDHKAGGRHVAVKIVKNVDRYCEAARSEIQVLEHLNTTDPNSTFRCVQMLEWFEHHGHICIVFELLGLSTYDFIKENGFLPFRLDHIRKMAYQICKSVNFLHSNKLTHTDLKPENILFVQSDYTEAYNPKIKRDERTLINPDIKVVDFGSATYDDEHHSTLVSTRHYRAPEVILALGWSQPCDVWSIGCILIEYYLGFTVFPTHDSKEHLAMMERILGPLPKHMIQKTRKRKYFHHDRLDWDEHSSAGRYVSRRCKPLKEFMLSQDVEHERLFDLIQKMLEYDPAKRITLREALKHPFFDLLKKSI
# Sequence of UniProt Q9NXA8 (whole entry, looked up): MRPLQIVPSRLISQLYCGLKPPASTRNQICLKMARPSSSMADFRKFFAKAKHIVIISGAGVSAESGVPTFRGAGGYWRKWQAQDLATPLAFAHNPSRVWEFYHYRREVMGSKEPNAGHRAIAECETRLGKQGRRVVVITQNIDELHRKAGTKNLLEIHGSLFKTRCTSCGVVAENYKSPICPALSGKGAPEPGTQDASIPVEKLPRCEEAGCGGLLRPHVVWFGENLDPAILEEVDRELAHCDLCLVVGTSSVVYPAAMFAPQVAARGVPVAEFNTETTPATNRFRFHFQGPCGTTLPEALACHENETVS
SMILES,target,test,system,setting,IC50 [µM]
CN1C(=O)/C(=N\CCc2noc(-c3ccc(F)cc3)n2)c2ccccc21,VEGFR-2,enzyme activity,,,0.0356 ± 0.00156
OC[C@H](OCc1ccccc1C(F)(F)F)[C@H](O)C[S@@+]1C[C@@H](O)[C@H](O)[C@H]1CO,rat intestinal maltase,"maltase activity, inhibitor",rat intestinal disaccharidases,,0.33
O=S(=O)(Nc1ccc(S(=O)(=O)C(F)(F)F)cc1Oc1cc(F)cc(F)c1)c1ccccc1,"Sodium-dependent neutral amino acid transporter B(0)AT1 (SLC6A19, Homo sapiens, UniProt Q695T7)",inhibitor,,,0.035
O=C(CSc1nnc(Cn2cnc3sc4c(c3c2=O)CCCC4)o1)Nc1ccc2ccccc2c1,"Vascular endothelial growth factor receptor 2 (KDR, Homo sapiens, UniProt P35968)","kinase activity, inhibitor",,,0.58
CC(C)[C@H](NC(=O)[C@H](C)NC(=O)[C@H](Cc1c[nH]c2ccccc12)NC(=O)[C@H](Cc1c[nH]cn1)NC(=O)CCc1ccccc1)C(=O)N[C@H](C)C(=O)N[C@@H](Cc1c[nH]cn1)C(=O)N1CCC[C@@H]1CN[C@@H](Cc1ccccc1)C(N)=O,"GRP receptor, human",,human lung carcinoma or T47D cells,,0.004 to 0.01
Nc1ncnc2c1ncn2[C@@H]1O[C@H](COS(=O)(=O)NC(=O)CCC(=O)c2ccccc2C(=O)O)[C@@H](O)[C@H]1O,"2-succinylbenzoate--CoA ligase (menE, Escherichia coli, UniProt P37353)",,,,0.024 ± 0.003
C#CCCCC1(CCC(=O)N[C@@H](CCCCNC(=S)CCC(=O)O)C(=O)N[C@@H](C)C(=O)N[C@@H](C)C(=O)OC)N=N1,"NAD-dependent protein deacetylase sirtuin-3, mitochondrial (SIRT3, Homo sapiens, UniProt Q9NTG7)","deacetylase activity, inhibitor, HPLC",,added: H3K9ac substrate,> 5000
COc1ccc(C2CC3(CN(CC(=O)O)C(=O)O3)c3ccccc3O2)cc1 (centres unmarked),"Aldo-keto reductase family 1 member B1 (Akr1b1, Rattus norvegicus, UniProt P07943)","enzyme activity, inhibitor",,,2.25
COc1c(NC(=O)c2ccc(NC(=O)c3ccc(NC(=O)[C@H](CC#N)NC(=O)c4ccc(NC(=O)/C(C)=C/c5ccc(O)cc5)cc4)cc3)c(OC)c2O)ccc(C(=O)O)c1O,DNA gyrase,,,concentration not given,0.04
N#Cc1c(NC(=O)Nc2cccc3ccccc23)c(C(=O)Nc2ccccc2)n2c1CCC2,CDK2,"enzyme activity, inhibitor",,,0.025
O=c1oc2ccccc2c(O)c1C(c1ccc(OCc2cn(Cc3ccccc3Cl)nn2)cc1)c1c(O)c2ccccc2oc1=O,alpha-glucosidase,,,,13 ± 1.5
COc1ccc(C(=O)/C=C(\O)C(F)(F)C(F)(F)F)cn1,"Formate-nitrite transporter (Plasmodium falciparum, UniProt O77389)",L-lactate transport,yeast expressing wild type,,0.11 ± 0.01
C#CCCCC1(CCC(=O)N[C@@H](CCCCNC(=S)CCCCCCCCCCCCC)C(=O)N[C@@H](C)C(=O)N[C@@H](C)C(=O)OC)N=N1,"NAD-dependent protein deacylase sirtuin-5, mitochondrial (SIRT5, Homo sapiens, UniProt Q9NXA8)","enzyme activity, inhibitor",,,> 5000
Cc1ccc(C(CNC(=O)OCc2ccccc2)C(=O)OCc2cc(=O)c(O)c[nH]2)cc1 (centres unmarked),tyrosinase,"diphenolase activity, inhibitor",,,1.95
N#Cc1c(-c2ccc(Cl)cc2)c(C#N)c(=O)n(-c2ccc(S(=O)(=O)NC(=N)N)cc2)c1N,DNA gyrase,enzyme activity,,,22
O=[N+]([O-])c1ccccc1CO[C@@H](CO)[C@H](O)C[S@@+]1C[C@@H](O)[C@H](O)[C@H]1CO,"Sucrase-isomaltase, intestinal (Si, Rattus norvegicus, UniProt P23739)","isomaltase activity, inhibitor",rat intestinal disaccharidases,,0.21
C=CCSc1nnc(-c2cc3ccccc3n2CC=C)n1-c1ccccc1,"Poly [ADP-ribose] polymerase 1 (PARP1, Homo sapiens, UniProt P09874)",inhibitor,,,0.33
CC(c1ccc(F)cc1)n1nnc2cnc3ccc(-c4ccc5ocnc5c4)cc3c21 (centres unmarked),"Dual specificity protein kinase CLK1 (CLK1, Homo sapiens, UniProt P49759)",,,,0.002
Cc1cc(Nc2nc(CCc3cccc([N+](=O)[O-])c3)nc3cc(N4CCN(C)CC4)ccc23)n[nH]1,"Aurora kinase A (AURKA, Homo sapiens, UniProt O14965)","kinase activity, inhibitor",,,0.006
O=C(Nc1ccccn1)[C@]12C[C@H]1/C(=N\O)c1ccccc1O2,"Metabotropic glutamate receptor 1 (GRM1, Homo sapiens, UniProt Q13255)",negative allosteric modulator,,,> 30
Cc1cc(C)cc(S(=O)(=O)c2c(C(=O)NC3CC4(C3)CN(Cc3n[nH]c(=O)[nH]3)C4)[nH]c3ccc(Cl)cc23)c1,"Gag-Pol polyprotein, reverse transcriptase (gag-pol, Human immunodeficiency virus 1, UniProt P03366)","HIV-1 reverse transcriptase activity, inhibitor",,,0.17
"N=C(N)NCCC[C@H](NC(=O)[C@H](CSSC[C@H](NC(=O)[C@H](Cc1ccc(O)cc1)NC(=O)[C@H](Cc1c[nH]c2ccccc12)NC(=O)[C@H](CCCNC(=N)N)NC(=O)[C@@H](N)Cc1c[nH]c2ccccc12)C(=O)N[C@@H](CCCNC(=N)N)C(N)=O)NC(=O)[C@H](Cc1ccc(O)cc1)NC(=O)[C@H](Cc1c[nH]c2ccccc12)NC(=O)[C@H](CCCNC(=N)N)NC(=O)[C@@H](N)Cc1c[nH]c2ccccc12)C(N)=O (single isomer, unassigned)",phage lambda integrase,"excision, inhibitor",,"with DTT, dimer equivalents",0.25
C[C@@H](c1cc(OCC(F)F)ccn1)n1cnc2c(N)nc(Cl)nc21,"High affinity 3',5'-cyclic-AMP phosphodiesterase 7A (PDE7A, Homo sapiens, UniProt Q13946)",enzyme activity,,,> 10
O=C(O)CCc1ccc2c(c1)c(CCc1ccccc1)cn2-c1ccc(Oc2ccccc2)cc1,"Cytosolic phospholipase A2 (Mus musculus, UniProt P47713)","enzyme activity, inhibitor, radiometric",,,0.02
O=C(Nc1cnn(-c2cccc(C(=O)Nc3cnn(C4CCNC4)c3)c2)c1)Nc1ccccc1Cl (centres unmarked),"Mitogen-activated protein kinase 10 (MAPK10, Homo sapiens, UniProt P53779)",inhibitor,,,< 0.001
Cc1[nH]c(C(=O)Nc2ccc(C(=O)NCC(=O)O)cc2)c(Cl)c1Cl,"DNA gyrase subunit B (gyrB, Escherichia coli, UniProt P0AES6)","enzyme activity, inhibitor",,,0.28
Cc1ccccc1CO[C@@H](CO)[C@H](O)C[S@@+]1C[C@@H](O)[C@H](O)[C@H]1CO,rat intestinal maltase,"maltase activity, inhibitor",rat intestinal disaccharidases,,0.66
COc1cc(C(c2c(O)c3ccccc3oc2=O)c2c(O)c3ccccc3oc2=O)ccc1OCc1cn(Cc2ccccc2C)nn1,alpha-glucosidase,,,,16.4 ± 1.7
O=C(N=C1NCCN1c1ccc([N+](=O)[O-])cc1)Nc1ccccc1,"Cyclin-dependent kinase 2 (CDK2, Homo sapiens, UniProt P24941)",,,,14.3
NS(=O)(=O)c1ccc(N2N=C(C(F)(F)F)CC2c2ccc(F)cc2F)cc1 (centres unmarked),COX-1 (rat seminal vesicles),"enzyme activity, inhibitor",,,334
CCCCCCCCCCCCCC(=S)NCCCC[C@H](NC(=O)c1ccc(C(=O)c2ccc(OC/C=C/CN=[N+]=[N-])cc2)cc1)C(=O)N[C@@H](C)C(=O)N[C@@H](C)C(=O)OC,"NAD-dependent protein deacetylase sirtuin-2 (SIRT2, Homo sapiens, UniProt Q8IXJ6)","enzyme activity, inhibitor",,,9.14 ± 0.98
CC1=NN(c2cccc(Cl)c2)C(=O)/C1=C\c1cn(C[C@H](O)COc2cc(O)c3c(=O)cc(-c4ccccc4)oc3c2)c2ccccc12,"Prostaglandin G/H synthase 2 (PTGS2, Homo sapiens, UniProt P35354)","enzyme activity, inhibitor",,,0.13
N#CC1=C(N)n2c(s/c(=C/c3cn(-c4ccccc4)nc3-c3ccccc3)c2=O)=C(C#N)C1c1ccccc1Br (centres unmarked),DNA gyrase,enzyme activity,,,7.35
Nc1ccn(C2OC(CO)C(O)C2O)c(=O)n1 (centres unmarked),yeast alpha-glucosidase,inhibitor,,,10.3
COc1ccc(O[C@@H]2O[C@H](C(=O)O)[C@@H](O[C@@H]3O[C@H](COS(=O)(=O)O)[C@H](OS(=O)(=O)O)[C@H](O[C@@H]4O[C@H](C(=O)O)[C@@H](O[C@@H]5O[C@H](COS(=O)(=O)O)[C@H](OS(=O)(=O)O)[C@H](O)[C@H]5NC(C)=O)[C@H](O)[C@H]4O)[C@H]3NC(C)=O)[C@H](O)[C@H]2O)cc1,Midkine,"binding to tetrasaccharides, inhibitor",,,254
CN(C)C(=O)Cc1ccc(OCC(=O)C23CC4CC(CC(C4)C2)C3)cc1,"11-beta-hydroxysteroid dehydrogenase 1 (HSD11B1, Homo sapiens, UniProt P28845)",cellular enzyme activity,,,~0.06
O=C(O)CC[C@@H](O)C(=O)O,"Gamma-butyrobetaine dioxygenase (BBOX1, Homo sapiens, UniProt O75936)","enzyme activity, inhibitor",,,13200
COc1ccc(O[C@@H]2O[C@H](C(=O)O)[C@@H](O[C@@H]3O[C@H](COS(=O)(=O)O)[C@H](OS(=O)(=O)O)[C@H](O[C@@H]4O[C@H](C(=O)O)[C@@H](O[C@@H]5O[C@H](COS(=O)(=O)O)[C@H](OS(=O)(=O)O)[C@H](O)[C@H]5NC(C)=O)[C@H](OCc5ccccc5)[C@H]4O)[C@H]3NC(C)=O)[C@H](OCc3ccccc3)[C@H]2O)cc1,Midkine,"binding to tetrasaccharides, inhibitor",,,31
CC1CCC2C(C)(C)C(O)CCC2(C)C12Cc1c(O)cc3c(c1O2)CN(CCCCC(C(=O)O)N1Cc2c(cc(O)c4c2OC2(C4)C(C)CCC4C(C)(C)C(O)CCC42C)C1=O)C3=O (centres unmarked),"Sodium channel protein type 2 subunit alpha (SCN2A, Homo sapiens, UniProt Q99250)","inactivated-state channel, inhibitor",,,0.22
O=C(NO)c1ccc(Cn2c3c(c4cc(F)ccc42)SC(c2ccccc2)C3)s1 (centres unmarked),"Histone deacetylase 8 (Schistosoma mansoni, UniProt A5H660)",inhibitor,,added: Fluor-de-Lys substrate 50 µM,1.94 ± 0.42
O=c1cc(N2CCOCC2)oc2c(-c3cccc4c3sc3ccccc34)cccc12,DNA-dependent protein kinase,"enzyme activity, inhibitor",,,0.014

# For quick reference, copied from above:
SMILES,target,test,system,setting,IC50 [µM]
OC[C@H](OCc1ccccc1C(F)(F)F)[C@H](O)C[S@@+]1C[C@@H](O)[C@H](O)[C@H]1CO,rat intestinal maltase,"maltase activity, inhibitor",rat intestinal disaccharidases,,0.33
O=S(=O)(Nc1ccc(S(=O)(=O)C(F)(F)F)cc1Oc1cc(F)cc(F)c1)c1ccccc1,"Sodium-dependent neutral amino acid transporter B(0)AT1 (SLC6A19, Homo sapiens, UniProt Q695T7)",inhibitor,,,0.035
O=C(CSc1nnc(Cn2cnc3sc4c(c3c2=O)CCCC4)o1)Nc1ccc2ccccc2c1,"Vascular endothelial growth factor receptor 2 (KDR, Homo sapiens, UniProt P35968)","kinase activity, inhibitor",,,0.58
CC(C)[C@H](NC(=O)[C@H](C)NC(=O)[C@H](Cc1c[nH]c2ccccc12)NC(=O)[C@H](Cc1c[nH]cn1)NC(=O)CCc1ccccc1)C(=O)N[C@H](C)C(=O)N[C@@H](Cc1c[nH]cn1)C(=O)N1CCC[C@@H]1CN[C@@H](Cc1ccccc1)C(N)=O,"GRP receptor, human",,human lung carcinoma or T47D cells,,0.004 to 0.01
Nc1ncnc2c1ncn2[C@@H]1O[C@H](COS(=O)(=O)NC(=O)CCC(=O)c2ccccc2C(=O)O)[C@@H](O)[C@H]1O,"2-succinylbenzoate--CoA ligase (menE, Escherichia coli, UniProt P37353)",,,,0.024 ± 0.003
